Measurements from different studies.
Protocols differ between the studies behind these lines. ± gives the spread as reported.
uncharacterized protein: uncharacterized protein (Canis lupus familiaris, UniProt A0A8I3P1R6)
Peroxisome proliferator-activated receptor alpha: Peroxisome proliferator-activated receptor alpha (Rattus norvegicus, UniProt P37230)

Structure (SMILES)	target	test	test system	conditions	EC50
COc1nccnc1C(C)C	uncharacterized protein	cAMP level, agonist, cAMP luminescence	HEK293 cells	–	293 ± 34.6 µM
Cn1cc2c(C(=O)O)ccc(NS(=O)(=O)c3ccc(OCC4CCC4)c(Cl)c3)c2n1	DRD1 (Homo sapiens, UniProt P21728)	antagonist	–	–	> 10 µM
CCc1nccnc1CC	uncharacterized protein	cAMP level, agonist, cAMP luminescence	HEK293 cells	–	659 ± 24.9 µM
Nc1ncnc2c1ncn2[C@@H]1O[C@H](COP(=O)(O)OP(=O)(O)O[C@H]2O[C@H](CO)[C@@H](O)[C@H](O)[C@H]2O)[C@@H](O)[C@H]1O	P2Y purinoceptor 14 (P2RY14, Homo sapiens, UniProt Q15391)	calcium mobilisation, agonist	cells with Gαqi5	receptor mutant Wt	1.35 ± 0.123 µM
Nc1nc2c(ncn2[C@@H]2O[C@@H]3COP(=O)(O)O[C@H]3[C@H]2O)c(=O)[nH]1	Cone cGMP-gated channel (Morone saxatilis, UniProt Q3I0N1+Q3I0N2)	channel current, agonist, suction electrode	Morone saxatilis, cone outer segments	together with: 0.5 µM Ca2+	197 ± 55.8 µM
CCCCC[C@H](O)/C=C/[C@H]1C(=O)C[C@H](O)[C@@H]1C/C=C\CCCC(=O)O	PTGDR (Homo sapiens, UniProt Q13258, D319N)	agonist	–	–	0.219 µM
NC1=NCC2c3ccccc3Cc3ccccc3N12 (stereo not shown)	HTR1E (Homo sapiens, UniProt P28566)	agonist	–	–	2.86 µM
CCc1nccnc1OC	uncharacterized protein	cAMP level, agonist, cAMP luminescence	HEK293 cells	–	214 ± 9.5 µM
CCCCC[C@H](O)/C=C/[C@H]1[C@H](O)CC(=O)[C@@H]1C/C=C\CCCC(=O)O	PTGER1 (Homo sapiens, UniProt P34995, F334L/G92S/P39S)	IP1 accumulation, agonist	AD293	–	0.111 µM
O=c1ccn([C@@H]2O[C@H](COP(=O)(O)OP(=O)(O)OP(=O)(O)O)[C@@H](O)[C@H]2O)c(=O)[nH]1	P2Y purinoceptor 6 (P2RY6, Homo sapiens, UniProt Q15077)	agonist, cell-based	–	–	0.0942 µM
CCO[C@@H](Cc1ccc(OCCn2c(C)ccc2-c2ccc(SC)cc2)cc1)C(=O)O	Peroxisome proliferator-activated receptor alpha	receptor activation, agonist, luciferase reporter	–	serum-free, species rat	0.3 µM
CCOCc1nc(O)c(-c2nnc(Cc3ccc(Cl)cn3)o2)c(O)c1-c1c(OC)cccc1OC	Apelin receptor (APLNR, Homo sapiens, UniProt P35414)	Gαi1 activation, agonist, BRET biosensor	HEK293	–	0.00012 ± 2e-05 µM
C=CCc1ccc(OC)c(OC)c1	uncharacterized protein	cAMP level, agonist, cAMP luminescence	HEK293 cells	–	70.3 ± 29.3 µM
O=C(O)CCCc1cc2cc(Cl)ccc2n1S(=O)(=O)c1ccc2ncsc2c1	Peroxisome proliferator-activated receptor alpha	receptor activation, agonist, luciferase reporter	–	serum-free, species rat	3 µM
O=C1Nc2c(ccc(Cl)c2Cl)C1=NO	KCNN4/CALM1 (Homo sapiens, UniProt O15554+P0DP23, N201A)	ion current, activator, whole-cell patch clamp	–	N201A mutant	0.085 µM
Cc1nccnc1C	uncharacterized protein	cAMP level, agonist, cAMP luminescence	HEK293 cells	–	> 1500 µM
Cc1nn(-c2nc3c(F)cc(F)cc3s2)c(O)c1C(c1ccccc1C(F)(F)F)c1c(C)nn(-c2nc3c(F)cc(F)cc3s2)c1O	Cyclic GMP-AMP synthase, catalytic domain; with DNA (CGAS, Homo sapiens, UniProt Q8N884)	cGAS-DNA phase separation, inhibitor	–	–	3.19 µM
CN1CCN2c3ccccc3Cc3ccccc3C2C1 (stereo not shown)	HTR1F (Homo sapiens, UniProt P30939)	agonist	–	–	0.851 µM
CCC(C)c1nccnc1OC (stereo not shown)	uncharacterized protein	cAMP level, agonist, cAMP luminescence	HEK293 cells	–	159 ± 24.2 µM
